Published values of several laboratories.
Lines come from different studies, so protocols differ.

Structure (SMILES)	cell line	test	conditions	scale	measurement	result
NC(=O)CCCCC=C1C(=O)OC1CCc1ccccc1 (stereo not drawn)	ABHD16A-/- mouse peritoneal macrophages		1 µM, 4 h, together with: basal or LPS		lyso-PS level	no effect
CCCCCCCCC=CCCCCCCCC(=O)OC(COC(=O)Cc1c(C)n(C(=O)c2ccc(Cl)cc2)c2ccc(OC)cc12)COP(=O)([O-])OCC[N+](C)(C)C (stereo not drawn)	MDA-MB-468	SRB		reference: MCF-10A IC50 over MDA-MB-468 IC50	selectivity index	2.69
C[C@H]1C(OCCCCCCCC[P+](c2ccccc2)(c2ccccc2)c2ccccc2)O[C@@H]2O[C@@]3(C)CCC4[C@H](C)CCC1[C@]42OO3 (stereo partly drawn)	T24	cell growth	concentration not given	reference: compound over dihydroartemisinin	activity ratio	1260
CC[C@H]1OC(=O)[C@H](C(C)C)NC(=O)[C@H](C)OC(=O)[C@@H](C(C)C)NC(=O)[C@@H](C(C)C)OC(=O)[C@H](C(C)C)NC(=O)[C@H](C)OC(=O)[C@@H](C(C)C)NC(=O)[C@@H](C(C)C)OC(=O)[C@H](C(C)C)NC(=O)[C@H](C)OC(=O)[C@@H](C(C)C)NC1=O	U-87 MG	annexin V/PI flow cytometry	0.8 µM, 72 h	reference: untreated control	apoptotic cells increase	20.4%
CC(C)c1cnn2c(NCc3ccccc3)cc(N[C@@H](CO)[C@H](O)CO)nc12	MCF7 resistant to compound	sulforhodamine B		reference: resistant over parental MCF7	GI50 ratio	2.5 fold
CC=CCC(C)C(O)C1C(=O)NC(CC)C(=O)N(C)C(OCC)C(=O)N(C)C(CC(C)(C)O)C(=O)NC(C(C)C)C(=O)N(C)C(CC(C)C)C(=O)NC(C)C(=O)NC(C)C(=O)N(C)C(CC(C)C)C(=O)N(C)C(CC(C)C)C(=O)N(C)C(C(C)C)C(=O)N1C (stereo not drawn)	HepG2-hNTCP-C4	preS1 attachment to NTCP, inhibitor	40 µM		preS1 binding	decreased
CC[C@H](C)[C@H](NC(=O)[C@@H]1CCCN1C(=O)[C@@H](N)C(C)C)C(=O)N[C@@H](C)C(N)=O	PC-12	Aβ42-induced neurotoxicity, inhibitor, MTT	concentration not given, 6 h, 37 °C, peptide to Aβ42 1:2, together with: Aβ42 2 µM	reference: untreated cells	viability	96%
CN1/C(=C/C=C2\CCCC(/C=C/C3=[N+](C)c4ccccc4C3(C)C)=C2SCCC(=O)N[C@@H](Cc2ccccc2)C(=O)N[C@@H](Cc2ccccc2)C(=O)N[C@@H](CCCCNC(=O)CCC(=O)O)C(=O)N[C@@H](CCCCNC(=O)CCCC[C@@H]2SC[C@@H]3NC(=O)N[C@@H]32)C(=O)O)C(C)(C)c2ccccc21	4T1	CCK-8	20 µM, 4 h then 24 h, together with: 808 nm laser 1 W/cm2 5 min	reference: untreated	viability	22.1%
CC[C@H](C)[C@H](NC(=O)[C@@H](NC(=O)[C@H](CC(N)=O)NC(=O)[C@H](CCC(N)=O)NC(=O)[C@@H]1CCCN1C(=O)[C@@H](NC(=O)[C@H](Cc1ccc(O)cc1)NC(=O)CNC(=O)[C@H](Cc1ccc(O)cc1)NC(=O)[C@H](Cc1c[nH]c2ccccc12)NC(=O)[C@H](Cc1c[nH]cn1)NC(=O)[C@H](Cc1ccc(O)cc1)NC(=O)CNC(=O)CCOCCOCCOCCNC(=S)Nc1ccc(C2=[N+]3C(=C(c4ccc(OC)cc4)c4cc(Cl)c(-c5ccc(OC)cc5)n4[B-]3(F)F)C=C2Cl)cc1)[C@@H](C)O)C(C)C)C(N)=O	HEp-2		10 µM, 1 h	reference: unconjugated BODIPY 5	cellular uptake	60 fold
CCCCCCCCCCCCCCCC(=O)N[C@@H](CCC(=O)NCCOCCOCCC(=O)NCCOCCOCCC(=O)NCCCC[C@H](NC(=O)[C@H](CC(=O)O)NC(=O)[C@H](CC(C)C)NC(=O)[C@H](Cc1ccc(O)cc1)NC(=O)[C@H](CCCCN)NC(=O)[C@H](CO)NC(=O)[C@H](Cc1ccc(O)cc1)NC(=O)[C@H](CC(=O)O)NC(=O)[C@H](CO)NC(=O)[C@@H](NC(=O)[C@H](Cc1ccccc1)NC(=O)[C@@H](NC(=O)CNC(=O)[C@H](CCC(N)=O)NC(=O)[C@@H](CO)NC(=O)[C@@H](N)Cc1c[nH]cn1)[C@@H](C)O)[C@@H](C)O)C(=O)N[C@@H](CCCNC(=N)N)C(=O)N[C@@H](CCCNC(=N)N)C(=O)N[C@@H](C)C(=O)N[C@@H](CCC(N)=O)C(=O)N[C@@H](CC(=O)O)C(=O)N[C@@H](Cc1ccccc1)C(=O)N[C@H](C(=O)N[C@@H](CCC(N)=O)C(=O)N[C@@H](Cc1c[nH]c2ccccc12)C(=O)N[C@@H](CC(C)C)C(=O)N[C@@H](CC(C)C)C(=O)N[C@@H](CC(N)=O)C(=O)N[C@H](C(=O)NCC(=O)NCC(=O)N1CCC[C@H]1C(=O)N[C@@H](CO)C(=O)N[C@@H](CO)C(=O)NCC(=O)N[C@@H](C)C(=O)N1CCC[C@H]1C(=O)N1CCC[C@H]1C(=O)N1CCC[C@H]1C(=O)N[C@@H](CO)C(N)=O)[C@@H](C)O)C(C)C)C(=O)O	LX-2 hepatic stellate cells	Western blot, refers to: α-SMA, TGF-β, phospho-Smad2/3	concentration not given		fibrosis marker protein levels	decreased
CCc1ccc(C(=O)N[C@@H](CO)C(=O)N[C@H](C(=O)N2CCC[C@H]2C(=O)N[C@@H](CC(N)=O)C(=O)NCC(=O)N[C@@H](CC(C)C)C(=O)O)[C@@H](C)OP(=O)(O)O)cc1	HeLa, QQ transfected		30 µM, 24 h		apoptotic cells	36.2%
CC/C=C\C/C=C\C/C=C\C/C=C\C/C=C\C/C=C\CCC(=O)Nc1ccn(C2OC(CO)C(O)C2(F)F)c(=O)n1 (stereo not drawn)	M14	NCI60 screen			CC50	34.8 µM

A few entries again:
Structure (SMILES)	cell line	test	conditions	scale	measurement	result
CN1/C(=C/C=C2\CCCC(/C=C/C3=[N+](C)c4ccccc4C3(C)C)=C2SCCC(=O)N[C@@H](Cc2ccccc2)C(=O)N[C@@H](Cc2ccccc2)C(=O)N[C@@H](CCCCNC(=O)CCC(=O)O)C(=O)N[C@@H](CCCCNC(=O)CCCC[C@@H]2SC[C@@H]3NC(=O)N[C@@H]32)C(=O)O)C(C)(C)c2ccccc21	4T1	CCK-8	20 µM, 4 h then 24 h, together with: 808 nm laser 1 W/cm2 5 min	reference: untreated	viability	22.1%
CC[C@H](C)[C@H](NC(=O)[C@@H](NC(=O)[C@H](CC(N)=O)NC(=O)[C@H](CCC(N)=O)NC(=O)[C@@H]1CCCN1C(=O)[C@@H](NC(=O)[C@H](Cc1ccc(O)cc1)NC(=O)CNC(=O)[C@H](Cc1ccc(O)cc1)NC(=O)[C@H](Cc1c[nH]c2ccccc12)NC(=O)[C@H](Cc1c[nH]cn1)NC(=O)[C@H](Cc1ccc(O)cc1)NC(=O)CNC(=O)CCOCCOCCOCCNC(=S)Nc1ccc(C2=[N+]3C(=C(c4ccc(OC)cc4)c4cc(Cl)c(-c5ccc(OC)cc5)n4[B-]3(F)F)C=C2Cl)cc1)[C@@H](C)O)C(C)C)C(N)=O	HEp-2		10 µM, 1 h	reference: unconjugated BODIPY 5	cellular uptake	60 fold
